Published values gathered from unrelated publications.
Numbered parts are unrelated; each lists some results of a single study.

Series 1 — method: competition protein-binding microarray; molecule type: double-stranded DNA, one strand shown; medium: in vitro; concentration: 2 µM; together with: Cbf1 competitor, 0.05 µM; direction: higher = stronger binding
Target: Phosphate system positive regulatory protein PHO4, full length, GST-tagged (PHO4, Saccharomyces cerevisiae, UniProt P07270, residues 1-312)
Setting: whole 60-bp probe, lowest competitor level
Residues (chain): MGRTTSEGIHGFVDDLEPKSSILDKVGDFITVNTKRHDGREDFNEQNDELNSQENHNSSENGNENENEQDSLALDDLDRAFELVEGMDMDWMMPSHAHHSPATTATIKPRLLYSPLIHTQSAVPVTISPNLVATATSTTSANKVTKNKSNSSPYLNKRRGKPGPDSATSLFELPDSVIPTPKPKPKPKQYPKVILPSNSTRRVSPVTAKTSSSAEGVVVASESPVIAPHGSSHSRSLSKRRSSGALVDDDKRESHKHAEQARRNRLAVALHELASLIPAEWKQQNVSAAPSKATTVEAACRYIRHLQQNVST
Oligonucleotide | fluorescence intensity [a.u.]
GCCGGCCTTTATACCCACGGGTGCATCTTCAAAGACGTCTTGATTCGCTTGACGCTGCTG | 8760
TTGAGTGTCGTCTGGCACGTGGAGGTCCCTCCTCAGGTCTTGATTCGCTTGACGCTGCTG | 13900
GTCTTGTCTCATTGATTAGTGGGTGTCCCCACTTCAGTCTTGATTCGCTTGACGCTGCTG | 4070
CATACCCAACCTTGTCGCGTGGGTGAAGATATTTGTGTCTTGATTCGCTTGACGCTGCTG | 10900
AATCTGTGTCAGTTCCACGTTCGTAATGGCAACCCGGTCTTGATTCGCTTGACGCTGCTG | 10100
CATACCCAACCTTGTTTCGTGGGTGAAGATATTTGTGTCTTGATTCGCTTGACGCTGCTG | 4860
AGACCAGATGGTCTTCACGTTATCAATGTTGGTAAGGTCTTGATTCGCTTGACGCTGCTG | 5960
ACTCTTTCGCTAGTCCATGTGATTCTTTGAGAGTTTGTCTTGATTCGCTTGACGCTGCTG | 10500
GCTGCCTGCACCGACTGCGTGCGATCGTAATTGGTAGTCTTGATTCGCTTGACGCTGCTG | 8990
GGAGAAGTTACTGTACACATGAAAACACGAATAACTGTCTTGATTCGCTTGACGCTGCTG | 5640
GCCACAACTGCGGCCCGCGTGAAGAAAAAACCCCATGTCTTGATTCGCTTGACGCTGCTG | 5420
CTTCTGTAAATTTGGGGCGTGGGTGGACGCGCCCCGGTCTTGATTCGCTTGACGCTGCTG | 9020
TGCGCAACAACTTGGTGCGTGGGTGTATGTCTAGAAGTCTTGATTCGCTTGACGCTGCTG | 8690
CTAACGAAGGTTTTTCACGTGCCCTACAAGCCAAGTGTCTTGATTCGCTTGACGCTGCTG | 14300
CTTTGTCTCCATTGCGGCGTGCTAATTCTTCTACTAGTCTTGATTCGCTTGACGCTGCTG | 8030
CTTTCCCGATCTTGGTGTGTGGGTGTAGCACATTTGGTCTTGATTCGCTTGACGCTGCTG | 6880
AAAGCGGTAATTTGGGTCGTGGGTGCAGATATCTATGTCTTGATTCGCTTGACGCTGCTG | 9310
GTCCTTTGGTGGTTCAACGTGAGTCAAGTCCTTGAAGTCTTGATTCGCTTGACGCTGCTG | 7530
AAGTGCCGTTTCTAAAACGTGGTCGAATAATCCTCAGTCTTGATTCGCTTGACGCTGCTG | 11900
CTTCCAAGGTGAGGACACGGGTTCGATTCTCGTACCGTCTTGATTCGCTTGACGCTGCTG | 9270
ATGAAACGGAGCAGTCATATGATCAAAATACAGAATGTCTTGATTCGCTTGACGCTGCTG | 4520
GTCTTGTCTCATTGTCACGCGACTTTCCCCACTTCAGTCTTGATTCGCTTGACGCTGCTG | 6960
GCCCATTAAAAATAATATGTGTGAGCTTCTTCCACAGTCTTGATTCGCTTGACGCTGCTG | 4300
CGTCCTAGCGATTGACCAGTGGGTGCCATGAGGAAGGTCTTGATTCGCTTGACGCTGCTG | 6780
AAGATAAAAAACGGAAACGTGCTTTTTTAATTTAATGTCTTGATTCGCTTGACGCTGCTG | 15500

Series 2 — method: RNA Bind-n-Seq; molecule type: RNA; medium: in vitro; concentration: 200 nM; setting: whole 134-nt RNA, ends assumed; together with: 150 mM KCl; relative to: input library; direction: higher = stronger binding
Target: Fragile X messenger ribonucleoprotein 1, C-terminal low-complexity region (Fmr1, Mus musculus, UniProt P35922)
Oligonucleotide | log2 enrichment
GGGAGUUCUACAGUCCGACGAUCUAACUUUAGAGGAGGAUCUGAUGGAGAUGGCAGUGGACGUGGAUUUGGGGAUGGCUAUAAUGGGUAUGGAGGAGGACCUGGAGGUGGCAAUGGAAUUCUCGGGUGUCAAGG | 0.461
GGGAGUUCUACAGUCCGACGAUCCCUGUGCUACACAUCGUAUGUACCGAAUCAAACCCCCCCAAAUUUUUUUAAACCCCCAAAAAAGUAUUAUGUUACGCCGUUCGGAUCUGCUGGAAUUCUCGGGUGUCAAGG | 0.0565
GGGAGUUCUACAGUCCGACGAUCCUCAAGUCCUGUGCUACACAUCGUAUGUACCGAAUCGGGCCCGGCCCGGCCCGGAAAGUAUUAUGUUACGCCGUUCGGAUCUGCACUUCCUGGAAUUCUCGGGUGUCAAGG | -0.412
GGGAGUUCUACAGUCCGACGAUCCAAGUCCUGUGCUACACAUCGUAUGUACCGAAUCGGGCCGGGGCCGGGGCCGGGGAAAGUAUUAUGUUACGCCGUUCGGAUCUGCACUUCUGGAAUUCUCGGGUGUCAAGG | -0.163
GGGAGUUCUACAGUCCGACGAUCACCAUGCAGGUGGGCAUCUUUGGGAAGUGGGGCAAGGGGGGGAUAGGGAGGGGGGUAACACUUUGGGAACAGGUGCUCCCAGGUCGUUUCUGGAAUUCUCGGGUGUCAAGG | 0.837
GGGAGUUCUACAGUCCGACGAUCCAAGUCCUGUGCUACACAUCGUAUGUACCGAAUCGGGUUUGGGAGGGUUUUUGGGAAAGUAUUAUGUUACGCCGUUCGGAUCUGCACUUCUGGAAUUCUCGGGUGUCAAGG | 0.88
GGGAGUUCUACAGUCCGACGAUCAGUCCUGUGCUACACAUCGUAUGUACCGAAUCGGGAAAAGGGAAAAGGGGAAAAGGGAAAGUAUUAUGUUACGCCGUUCGGAUCUGCACUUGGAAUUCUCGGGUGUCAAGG | 0.0253
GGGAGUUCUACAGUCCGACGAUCCACAGACAACACGCACCCACAAAAACACAGAGGGAAGGGGUUGGGAUGGGGACAGGGUGCACAGCAGGGCGGGGUAGGACCCCAGCCCCUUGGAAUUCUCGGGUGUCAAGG | 1.28
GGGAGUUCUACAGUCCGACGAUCGUCCUGUGCUACACAUCGUAUGUACCGAAUCGGGGCCCCCGGCCCCCGGGGCCCCCGGGAAAGUAUUAUGUUACGCCGUUCGGAUCUGCAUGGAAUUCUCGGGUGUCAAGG | -0.934
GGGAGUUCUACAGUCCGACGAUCACCAUGCAGGUGGGCAUCUUUGGGAAGUGGGGCAAGGGGGGGAUAGGGAGGGGGGUAACACCUUGGGAACAGGUGGUCCCAGGUCGUUUCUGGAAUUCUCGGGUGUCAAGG | 0.774
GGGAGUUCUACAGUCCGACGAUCCUCAAGUCCUGUGCUACACAUCGUAUGUACCGAAUCGGCCCGGCCCGGCCCGGGAAAGUAUUAUGUUACGCCGUUCGGAUCUGCACUUCCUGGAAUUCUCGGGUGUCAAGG | -0.164
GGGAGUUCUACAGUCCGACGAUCCCUCAAGUCCUGUGCUACACAUCGUAUGUACCGAAUCGGGUGGGGUGGUGGGAAAGUAUUAUGUUACGCCGUUCGGAUCUGCACUUCCAGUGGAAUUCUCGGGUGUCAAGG | 1.43
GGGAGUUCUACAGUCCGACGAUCAGUCCUGUGCUACACAUCGUAUGUACCGAAUCGGUUUGGAAAAAAAGGUUUUUUUGGAAAGUAUUAUGUUACGCCGUUCGGAUCUGCACUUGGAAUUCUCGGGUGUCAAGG | -1.19
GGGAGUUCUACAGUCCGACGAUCUGGGGUCUGCGUACGCCUGGAGUCCUUCCCCGCUGUGCUCAGCAUGGACCCUAUCCGGAGCUUCUGCGGGAAGCUGCGGUCUCUGGCCAGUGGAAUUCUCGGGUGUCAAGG | -0.782

Series 3 — method: protein-binding microarray; molecule type: double-stranded DNA, one strand shown; medium: in vitro; concentration: 940 nM top; setting: 60-bp whole probe; together with: salmon DNA 0.4 mg/ml; relative to: random background probes; direction: higher = stronger binding; constant ends, left off below: GCCTAGCAC … GTCTTGATTCGCTTGACGCTGCTG
Target: Interferon regulatory factor 5, full length, phosphomimetic (IRF5, Homo sapiens, UniProt Q13568-2, residues 1-514, S451D/S453D/S456D/S462D)
Oligonucleotide | fitted relative affinity [z-score]
ATTTTTTTCTAATTGAAATGGTGCTAG | 0.414
GTGAAATAAGGGAGGCCTAGGTGCTAG | -0.744
TCAGGACTGGGTTTCGGTTAGTGCTAG | 7.34
TATTTTTACATTATTACCTCGTGCTAG | 1.11
CACTTTCTTTAACTCATTCTGTGCTAG | 2.81
TTCATTTTGTGTCTGGGCATGTGCTAG | 0.0895
GGAAGTATGACTCTGCCTCTGTGCTAG | -0.374
GACGATCTCATTTTCGAGACGTGCTAG | 0.831
GACGGACTGGTCACTGGGGACGTGCTA | -0.231
GACGGACTGGGGTATCGGTACGTGCTA | 1.93
GTGACTCAGCACTTTGGCATGGTGCTA | -0.595
AAAACTAGGGCATTTAGAAAAGTGCTA | -0.491
GACGATCTCTGTTTCGAGACGTGCTAG | 1.82
TTTCTGATCCATTTTGGTTTGTGCTAG | 2.53
TTAGGAGTCAACTCTCTAATTGTGCTA | -0.539
TCAACACTCTTCTTTTGCACTGTGCTA | 1.05
TGCTTCTAACAGAGGAGGTTGTGCTAG | -0.663
GACGATCTCCGTATCGAGACGTGCTAG | 0.701
CTCATTCTCTGCTTCTGTATGTGCTAG | 2.33
CTAGGTCTCGGTCTCGGTTAGTGCTAG | 4.95
CACGGTCTCCTACTGCTGACGTGCTAG | -0.0957
TAAAACATCATTTTTCCCTCGTGCTAG | 0.284
TTAGATTCCAGTTTAGATTAGTGCTAG | 0.33
TTTGGTTTCCTTATCCTTTAGTGCTAG | 3.2

Series 4 — method: protein binding microarray; molecule type: double-stranded DNA, one strand shown; medium: in vitro; concentration: not given; relative to: not given; direction: higher = stronger binding
Target: Histone acetyltransferase KAT6A, both winged helices, GST fusion (KAT6A, Homo sapiens, UniProt Q92794, residues 1-181)
Setting: 8-mer, flanks averaged, mean of 2 arrays, mostly near background
Construct (chain): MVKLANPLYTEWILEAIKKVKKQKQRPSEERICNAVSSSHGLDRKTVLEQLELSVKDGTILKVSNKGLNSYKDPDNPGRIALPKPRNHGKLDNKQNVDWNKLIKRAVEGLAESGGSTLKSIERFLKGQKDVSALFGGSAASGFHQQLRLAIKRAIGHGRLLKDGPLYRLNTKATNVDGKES
Oligonucleotide | E-score
AGCATATG | -0.153
AAGGCAGC | -0.0429
TATAACGA | -0.0582
AACATCCA | -0.148
CCCTCCAG | -0.0637
AGATTGGA | -0.262
CGGCGACA | 0.254
TACGATCA | -0.0506
AATAATCG | 0.0171
ACAATCGC | 0.167
CTTAGGTC | -0.095
GTATTTCA | -0.0251
CGGTAGGC | 0.177
GGGTTCAA | 0.0421
TCAACGAA | -0.077
AGCGGTAG | 0.0611
ATCCTACA | -0.213
AACAAGGC | -0.136
ATAATGAG | -0.13
CCCTTACA | -0.118
CACCCCAG | -0.161
TCATTGGA | -0.14
CCAGTAGG | -0.125
CTAAAAAA | -0.133
GACGTTAA | 0.0874

Excerpt of the above (series 4):
Oligonucleotide | E-score
CTTAGGTC | -0.095
GTATTTCA | -0.0251
CGGTAGGC | 0.177
GGGTTCAA | 0.0421
TCAACGAA | -0.077
AGCGGTAG | 0.0611
ATCCTACA | -0.213
AACAAGGC | -0.136
ATAATGAG | -0.13
CCCTTACA | -0.118
